Experimental data from different studies.
Parts stem from different laboratories: compare values within a part only. Changes are numbered by the printed parent chain. Numbers after ± are the reported error.
Sequence of UniProt Q61473 (whole entry, looked up): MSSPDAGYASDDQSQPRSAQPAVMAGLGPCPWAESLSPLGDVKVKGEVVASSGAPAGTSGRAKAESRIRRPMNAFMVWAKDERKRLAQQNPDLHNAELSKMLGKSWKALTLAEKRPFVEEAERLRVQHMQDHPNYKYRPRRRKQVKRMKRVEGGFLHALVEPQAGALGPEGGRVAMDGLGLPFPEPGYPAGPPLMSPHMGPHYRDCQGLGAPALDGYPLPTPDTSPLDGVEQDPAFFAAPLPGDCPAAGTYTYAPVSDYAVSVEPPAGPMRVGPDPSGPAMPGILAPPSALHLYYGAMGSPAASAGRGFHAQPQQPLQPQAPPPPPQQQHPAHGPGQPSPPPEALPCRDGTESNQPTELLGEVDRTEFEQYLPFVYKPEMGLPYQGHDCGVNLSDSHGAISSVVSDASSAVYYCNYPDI

Set 1 — method: protein-binding microarray; molecule type: double-stranded DNA, one strand shown; medium: in vitro; concentration: 0.8 µM; setting: whole 60-bp probe, no competitor; reading: higher = stronger binding; all sequences stand within: … GTCTTGATTCGCTTGACGCTGCTG
Target: Centromere-binding protein 1, full length, N-terminal tag (CBF1, Saccharomyces cerevisiae, UniProt P17106, residues 1-351)
Sequence of UniProt P17106 (whole entry, looked up): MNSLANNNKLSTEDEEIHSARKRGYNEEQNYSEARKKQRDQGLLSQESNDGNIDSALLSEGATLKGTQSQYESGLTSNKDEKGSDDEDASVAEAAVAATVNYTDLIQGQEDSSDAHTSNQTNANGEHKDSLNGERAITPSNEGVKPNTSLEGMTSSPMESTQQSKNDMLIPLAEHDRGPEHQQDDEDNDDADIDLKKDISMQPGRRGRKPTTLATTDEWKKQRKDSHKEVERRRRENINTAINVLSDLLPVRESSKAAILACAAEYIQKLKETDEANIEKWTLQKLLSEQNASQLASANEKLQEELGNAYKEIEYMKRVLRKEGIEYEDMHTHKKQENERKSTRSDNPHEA
| Strand | fluorescence intensity [a.u.] |
| --- | --- |
| GAATCATATATTGATCACAATGCACGGAGACGCTAG | 651 |
| GAAAACGTGTGCTTTCGCCTGATTCAGTAATCATAG | 550 |
| CTAAGATATTGAGGTGTCATCAGATAGGACAATTTC | 567 |
| GAATAACCTCTTGTGATCATCTGCTATGTGGAATAG | 723 |
| GAATATCTATACCGTGACAACTCCAAAAAATCCTAG | 1010 |
| CTAGATTTGTTGCAAGAGGTGACATTCAGCATCTTC | 559 |
| GAAGGATAGTGGCATCACGAGAAGCTGTTGTTCTAG | 648 |
| GAATTATCCAACTATGGTGACGTAAGAATTTACTAG | 565 |

Set 2 — method: protein binding microarray; molecule type: double-stranded DNA, one strand shown; medium: in vitro; concentration: not given; baseline: not given; reading: higher = stronger binding
Target: Histone acetyltransferase KAT6A, winged helix 2, GST fusion (KAT6A, Homo sapiens, UniProt Q92794, residues 85-181)
Setting: 8-mer, flanks averaged, mean of 2 arrays, mostly near background
Construct (chain): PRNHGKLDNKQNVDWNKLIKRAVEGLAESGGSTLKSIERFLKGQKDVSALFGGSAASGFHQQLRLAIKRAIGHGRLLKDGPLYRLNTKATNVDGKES
| Strand | E-score |
| --- | --- |
| TTACACAA | 0.0474 |
| ATAGGCCG | -0.00347 |
| CCCTGGCG | 0.174 |
| CAGGGTCA | 0.016 |
| GGCAGGCC | 0.0998 |
| CTCGGACA | 0.114 |
| AAAGCATA | -0.0274 |
| GGGATACC | -0.0349 |

Other studies, line by line
P1: PafA, mature enzyme, eGFP fusion (Elizabethkingia meningoseptica, UniProt Q9KJX5); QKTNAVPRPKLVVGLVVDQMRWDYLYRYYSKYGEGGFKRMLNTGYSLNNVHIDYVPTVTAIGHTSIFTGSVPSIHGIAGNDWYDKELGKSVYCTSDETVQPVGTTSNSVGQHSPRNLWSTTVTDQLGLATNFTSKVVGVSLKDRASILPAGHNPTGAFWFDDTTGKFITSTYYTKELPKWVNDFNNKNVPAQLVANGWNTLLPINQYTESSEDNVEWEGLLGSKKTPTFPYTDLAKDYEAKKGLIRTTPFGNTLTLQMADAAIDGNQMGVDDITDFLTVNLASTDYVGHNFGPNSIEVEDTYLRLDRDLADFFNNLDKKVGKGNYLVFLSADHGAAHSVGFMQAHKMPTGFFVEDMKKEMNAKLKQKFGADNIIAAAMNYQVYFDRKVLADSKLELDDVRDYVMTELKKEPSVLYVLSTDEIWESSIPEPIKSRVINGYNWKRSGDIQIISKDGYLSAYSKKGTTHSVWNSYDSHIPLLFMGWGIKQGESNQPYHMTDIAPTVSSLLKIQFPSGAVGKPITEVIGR
| Substance | target | test | test system | setting | how to read | measurement | value |
| --- | --- | --- | --- | --- | --- | --- | --- |
| P1 R386V | inorganic phosphate, free oxyanion | microfluidic competitive inhibition | in vitro, cell-free expressed | not given, derived from inhibition constants, unchanged parent 615000 nM | lower = stronger binding | phosphate dissociation constant | 728 µM |
| GGCGGCGGCATTGTCCGGCGCGCGG (dsDNA) | Sox17 66-144 (Mus musculus, UniProt Q61473) | EMSA | double-stranded DNA, one strand shown | – | – | Kd | 2.76 ± 2.38 nM |
